Published values of several laboratories.
A part holds a random share of what one study measured.

Set 1
Target: TAR DNA-binding protein 43, full length, His tag (TARDBP, Homo sapiens, UniProt Q13148, residues 1-414)
Technique: RNA Bind-n-Seq
Molecule type: RNA
Sample: in vitro
Concentration: 20 nM
Notes: 6-mer, flanks averaged, single round
With: 150 mM LiCl
Reference: input library
Reading: higher = stronger binding
`AUUGAG`: “6-mer enrichment (R)” 1.02.
Under “6-mer enrichment (R)”, `UAUAAG` is recorded as 0.972.
`AAGCUG`: “6-mer enrichment (R)” 0.887.
`AAGCGC` — result for “6-mer enrichment (R)”: 0.908.
`GGUCAA`: “6-mer enrichment (R)” 0.882.
`CGCUCA` — result for “6-mer enrichment (R)”: 0.839.
`UGAGUA`: “6-mer enrichment (R)” 1.09.
`UUGUCU` — result for “6-mer enrichment (R)”: 1.04.
`CCAAGC`: “6-mer enrichment (R)” 0.881.
`CAAGUA`: “6-mer enrichment (R)” 0.886.
Under “6-mer enrichment (R)”, `AGCCAU` is recorded as 0.877.
For `AAAUCU`, “6-mer enrichment (R)” read 0.867.
For `UGUGGA`, “6-mer enrichment (R)” read 1.32.
Under “6-mer enrichment (R)”, `CGAAUU` is recorded as 0.855.
`ACCUCC` — result for “6-mer enrichment (R)”: 0.951.
Under “6-mer enrichment (R)”, `CGCCGU` is recorded as 0.906.
Under “6-mer enrichment (R)”, `UAGUAG` is recorded as 1.01.
For `UGGUUG`, “6-mer enrichment (R)” read 1.37.
`CUCUCU`: “6-mer enrichment (R)” 0.942.
Under “6-mer enrichment (R)”, `GAAAGC` is recorded as 0.837.
Under “6-mer enrichment (R)”, `UGAUAA` is recorded as 0.895.
Under “6-mer enrichment (R)”, `CUCAUG` is recorded as 0.881.
Under “6-mer enrichment (R)”, `CGGUAA` is recorded as 0.902.
`AAUUGG` — result for “6-mer enrichment (R)”: 1.02.
Under “6-mer enrichment (R)”, `CCGAUA` is recorded as 0.835.

Set 2
Target: RNA binding protein fox-1 homolog 2, RRM domain, GST-SBP tag (RBFOX2, Homo sapiens, UniProt O43251-10, residues 100-194)
Technique: RNA Bind-n-Seq
Molecule type: RNA
Sample: in vitro
Concentration: 365 nM
Notes: natural RNA segment, single round, ends assumed
Reference: no-protein control
Reading: higher = stronger binding
Constant ends, left off below: GGGAGUUCUACAGUCCGACGAUC … UGGAAUUCUCGGGUGCCAA
Target sequence (chain): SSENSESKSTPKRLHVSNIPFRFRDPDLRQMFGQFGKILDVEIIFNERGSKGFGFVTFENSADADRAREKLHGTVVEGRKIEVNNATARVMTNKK
`AGACUCCAGCGAGUCUCGGGAAGCCCAGGGGACCUGUCACCAUCUGGGCACUUCCCAGGCUCAAUGCUCAGCCAGAGUUUGCUGGUGGACCUCAGGAUUCGAAGUGUGCA`: “RBNS enrichment (R)” 11.7.
`AAGAACGGAAAUGCUGUCUUGUGAGCAUGAAGUGAACGGGCUGUUUUGCUCCAGCCACUUUUCUUGUACAACCACAUGGAUGGAUUAGAUGUCCUCAGGUCUUUUCCAUC` — result for “RBNS enrichment (R)”: 1.82.
`GGGAGCAAAAGAAAAAUUUUUGUACAUUUUCUUCAUUUAAUCAGAAUGGUUUACAUAUUUCUGCAAAUGGAGAAAAUGUAAAUAUAAACCCAUGACCAUUUACUAAGUGA` — result for “RBNS enrichment (R)”: 0.739.
`AUUCUCCUAAAGAGCAGUGAAGGAAAUGUCAGGUUAGCAGGACCCAAGUUUUGGGUGUGAAAUGUUGCCAGCUUCCUAUAAUGUAAACGGACUUGUUAACCUAACCUAAU` — result for “RBNS enrichment (R)”: 0.231.
`AUUGGCUUAACAGAAACAGUCUGUAAAAACCUAACAGUGGUGCAAUCAUGUUGUCUGUGUUGUGUUAUGUGAGAAUUUUCUCCUAAGUCAUGCAGGUAAUGACAAUAUAC` — result for “RBNS enrichment (R)”: 0.343.
`AGGUGGUAUGGAAGCCUGCAUGCGUGUUCAACUCUGUUCCUCCUCCCUCCUCCUCGGCCUCCCUCCUCCCCUCCUUCGCUCGCUCAACCUCUUUUGUUCAGUACGUGUAA`: “RBNS enrichment (R)” 7.23.
Under “RBNS enrichment (R)”, `UUUUGAUUAUUCCUCUAAGAUGAGCUUCUGGGAACAGUAUCACCAAAUGUCCCAAACAUUUAAGCUAGAGUUAGUUCUUGAUGUUGUAUACCUAAGCCCAUAAUCGAGCU` is recorded as 0.249.
`UAAGUUUAUUUUGUCAAAAAUGACAAGGAAAAAGCCAGCUGUUUUCAUAGACCUUUUCAUUAUGAUACUGUAUCUUGCAUAGUUGAAUCUUCUCAUUUAUACAGUGCCUU`: “RBNS enrichment (R)” 0.485.

Set 3
Target: Sal-like protein 4, full length isoform B (SALL4, Homo sapiens, UniProt Q9UJQ4-2, residues 1-616)
Technique: universal PBM
Molecule type: double-stranded DNA, one strand shown
Sample: in vitro
Concentration: not given
Notes: 8-mer, flanks averaged, mean of replicates
Reading: higher = stronger binding
For `AATTCAAA`, the E-score was 0.324.
For `TATCCAAA`, the E-score was 0.231.
`CTTGCTCC` has an E-score of 0.0401.
`ATGAGTCC` has an E-score of -0.0196.
For `GCGGTTAC`, the E-score was -0.0843.
With `CACACGGC` the E-score was -0.233.
`CACGATCC` gave an E-score of -0.0296.
For `ACATCCTC`, the E-score was -0.0938.
`ACTACTTA` gave an E-score of 0.157.
With `ATGCTTTC` the E-score was 0.15.
For `CGTGCAAC`, the E-score was -0.107.
`CCTGGCTC` gave an E-score of -0.271.
For `AGCGGATC`, the E-score was -0.184.
`GGATCGGA` gave an E-score of -0.234.
The E-score of `AAGCGACG` is reported as -0.211.
For `GGTTCGCA`, the E-score was -0.163.
With `CTATGAGC` the E-score was 0.0889.
The E-score of `TAACACGA` is reported as 0.156.
`CATCAAGC` gave an E-score of -0.0984.
With `CGGCGCCC` the E-score was -0.311.
For `AAACGGTC`, the E-score was -0.153.
`CACCAATA` gave an E-score of 0.216.
With `GGTGAGAC` the E-score was -0.226.
`CTTTGATA` gave an E-score of 0.17.
`AATTAGCG` has an E-score of 0.0568.

Set 4
Target: RING finger protein unkempt homolog, zinc fingers 1-6, GST-SBP tag (UNK, Homo sapiens, UniProt Q9C0B0, residues 30-357)
Technique: RNA Bind-n-Seq
Molecule type: RNA
Sample: in vitro
Concentration: not given
Notes: RNA with constant flanks, human and mouse sites, ends assumed
Reference: input RNA pool
Reading: higher = stronger binding
Constant ends, left off below: GGGAGUUCUACAGUCCGACGAUC … CAACAGAGGAUUGAGCAUCA
Target sequence (chain): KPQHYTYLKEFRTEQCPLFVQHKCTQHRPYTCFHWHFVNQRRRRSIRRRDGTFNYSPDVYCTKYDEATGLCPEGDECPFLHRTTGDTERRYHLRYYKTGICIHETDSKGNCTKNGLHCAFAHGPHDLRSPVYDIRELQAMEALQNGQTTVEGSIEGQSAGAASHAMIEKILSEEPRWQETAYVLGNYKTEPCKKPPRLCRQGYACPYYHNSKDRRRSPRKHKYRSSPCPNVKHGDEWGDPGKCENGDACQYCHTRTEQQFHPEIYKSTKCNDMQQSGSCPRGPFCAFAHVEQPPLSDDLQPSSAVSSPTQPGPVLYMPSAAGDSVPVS
`AGGCCUGCUGGGAACAGGACUUCUAACAGCAAGUAUGUCUGGAAGGCUGUGGUGCAAGGCCAUUUUUGCUGGCUACAAGCGAGGUCUCCGGAACCAAAGAGAGCACACGGCUCUUCUUAA` gave a bound/input enrichment of 0.0813 ratio.
`CAUACUCAGGGAGCCCAGCCAGGGCUAGCAGACCAGGCAGCCAAGCUGUCCUACGCCUCGGCUGAGUCGCUGGAGACAAUGUCCGAGGCCGAGCUGCCCCUGGGCUUCAGCAGGAUGAAC` gave a bound/input enrichment of 0.0659 ratio.
The bound/input enrichment of `CAUCUGUUUUUUAAAUUACAUUUUUGUUUAUGUUCUUGAGCUGAUGUAGUGGAACUUGCCUAGCACAUUCAGGUCCCAGCCAGUUGGCAGAGCAUGCUCUCAUCUCCUUAUUCCAUACCC` is reported as 0.754 ratio.
The bound/input enrichment of `GGGAUUGAUCUCCUUAGGACCUAUCUUUGGCGUUGCCAGUUCCUUUUACCUUUUGUGAGUUUAGGUUUGAUGUGCUUUGGGGCUUUGAUCGGACUUUGUGCUUGCAUUUGCCGAAGCUUA` is reported as 2.83 ratio.
The bound/input enrichment of `GAUGAAAUGGGCCUAGGAAAGACUCUUCAAACAAUUUCUCUUCUUGGGUACAUGAAACAUUAUAGAAACAUUCCUGGGCCUCAUAUGGUUUUGGUUCCUAAGUCUACAUUACACAACUGG` is reported as 0.341 ratio.
`UGAAGGUUAUUUUGUUGUAUUUAGUAUUGGAAGAGUUGGUUUUCAGAGCAUUUCAGAAUGUUGGAAGCACCGCUGUCCUUUUGUUAGUAUAUAAGGCCUUUUAGCAAAGGUUUUCUCCUU` has a bound/input enrichment of 0.979 ratio.
`UCUAAAAUUGUUCGUGUUAGAUCAGAUUUGCUUGAUGAGUUAAUUAAAUCAGGGCAGUUAUUAGGAGUGAAAUUUAUAGCAGAGCUUGGUGUCCCAUUGUCACAGGUUAAAAGCAUCUCA` has a bound/input enrichment of 1 ratio.
The bound/input enrichment of `UUACGCUCUCCCGCGGCACGUCCGCGAGGACUUGAAGUCCUGAGCGCUCAAGUUUGUCCGUAGGUCGAGAGAAGGCCAUGGAGGUGCCGCCACCGGCACCGCGGAGCUUUCUCUGUAGAG` is reported as 0.116 ratio.
